Assay results of several laboratories.
Numbered parts are unrelated; each lists some results of a single study. Positions count from the first letter of the parent shown.

Study 1
Target: RNA binding protein fox-1 homolog 2, RRM domain, GST-SBP tag (RBFOX2, Homo sapiens, UniProt O43251-10, residues 100-194)
Method: RNA Bind-n-Seq
Form: RNA
Matrix: in vitro
Concentration: 365 nM
Notes: natural RNA segment, single round, ends assumed
Baseline: no-protein control
Direction: higher = stronger binding
Constant ends, left off below: GGGAGUUCUACAGUCCGACGAUC … UGGAAUUCUCGGGUGCCAA
Residues (chain): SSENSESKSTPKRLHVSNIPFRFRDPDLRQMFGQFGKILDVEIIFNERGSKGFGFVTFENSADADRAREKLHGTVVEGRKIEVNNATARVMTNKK
Sequence | RBNS enrichment (R)
CUACCAGCUAUUGACAGAGUACAGAGUUGAUUUUUUAAUAAAAAGUUAUAUAUAAUUAUCCCUUUAAUUAAAGGGAACAGAUGGGCGUUUCUAGUUUUAAGCAGGCAGGA | 0.747
GCAUGGAAUUUUACCCAUGAUUUCCUUACCACUAGGAUCUACAUUGAUAAAAAAAAUUGAUUAAAUUUAUUUCAUCUCAUAUAUAGAAGUACUUUAUUACCUGGAAACAU | 3.03
CUUGUACAUCUGACUGUGGCUGCUCAGCUCUGUUUUGAGAAGGAAAGGGGCCAUCCUUUCUGUGAGCAGGUGGGUAGUCAGUGCCAUAGAGUAGGAAAGGGCGGGGGUGG | 0.412
UGAGGGUUGUGAUCAGAGGUCCCAUCUCUUUACAGUGUCACUUCAAUCUGUUUGUGUUUCUGAGCCUGGUUCCUCCAAGACACAGGAAUGAAGUGGGGCCACAGAUUUAG | 0.515
AUUAAUAUAUACAAAGAGUCCUAUAAAGCCUGGCUGGGUGGAGAGGCACUGUUGAGUGUCUGCUGGGGACCUGACUUUACCAGUUUCCUGAAUGGCGCCUCCCCACCUCA | 0.668
ACCACACAUCACUGCCUGAACUCCUUUGGCAGAAGAACCCCACCAGACAUUGAGACAUUGUAUUUUGCCUUAGCAGGGAUGAGUUGGUCUCUCCUGGCUGGGCCAUCCCA | 0.673
AGGGUUUCACGCUGUUCUUUUCCUCUGAAGUAUGACAUUUCAUUGACACAUUUCGGUCCAGUGUAGCUGUACAUAUGGGGUGUGGACGACCUGUUACUGGACAUGUCUUA | 0.556
UGGAGGUUGCCCUGCAUCCCCCCUCCUCUGCCUGAGUGUGUCUUUGUAAUGUCAGCUGGCAUCAUACAAAGAGCAGGAGAAGCAAACACCCAGAACUCUUUUGCUGGUCA | 0.843
CCUCUGGGCAGCCUGGCGUGGGGACACUUGUUCUGUUCUGUCAUAUCCAAAACAAACUCCAUCCCCCCCAAGGCAGCCCAAAUAUCCAGAAACGGGCUCACCUGGACUAU | 0.276
UAAAUGCAAAUACCUUCCUGCCUCAUCCCAGAAAAUGAAAAAUAAUGCUUUUGACACUGUUUCUAGAAUUUUAAAGUUGAAAAAUGAUGAUAUAAUCCAGAAAUUGUUAC | 0.616
CUUUGAUUACAAAUUUGUCCUUGCACAUGUUAAGAUGAAUUAUCUCCUAAAAAUAUCAUUGUUCUUGGGAGCAGUGUAUGUUACUUUACAUAGCAGCGGUUCCUGUCAUG | 0.366
AUUAUUGGGCUUGCAGAGUUCCCUUAUUCUGGGGCUACAAUGCUUUUAUCGUUCCAAGCUUCAUCUUAGCUUCAGAACAAACUGUUAAAUCAUGAUUUUGCAGAACCUUU | 0.415

Study 2
Target: Histone acetyltransferase KAT6A, winged helix 2, GST fusion (KAT6A, Homo sapiens, UniProt Q92794, residues 85-181)
Method: protein binding microarray
Form: double-stranded DNA, one strand shown
Matrix: in vitro
Concentration: not given
Notes: 8-mer, flanks averaged, mean of 2 arrays, mostly near background
Baseline: not given
Direction: higher = stronger binding
Target sequence (chain): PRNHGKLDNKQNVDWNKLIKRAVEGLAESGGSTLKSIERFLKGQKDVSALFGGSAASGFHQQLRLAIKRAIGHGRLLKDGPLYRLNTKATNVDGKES
Sequence | E-score
CCCGTACG | 0.0458
GGTCGTTA | -0.093
CAGCTTCA | 0.00828
CTCAATCA | 0.109
GCTAGCAA | 0.0259
AAATAGGT | -0.0844
GACTTCGC | 0.0668
GGGCTTTA | -0.19
GACACTTA | -0.135
CCACTATC | -0.116
ACATTACA | -0.235
AGCGCTTG | 0.106

Study 3
Target: Transcription factor Sp1 (SP1, Homo sapiens, UniProt P08047, residues 1-785, full length assumed)
Sequence of UniProt P08047 (whole entry, looked up): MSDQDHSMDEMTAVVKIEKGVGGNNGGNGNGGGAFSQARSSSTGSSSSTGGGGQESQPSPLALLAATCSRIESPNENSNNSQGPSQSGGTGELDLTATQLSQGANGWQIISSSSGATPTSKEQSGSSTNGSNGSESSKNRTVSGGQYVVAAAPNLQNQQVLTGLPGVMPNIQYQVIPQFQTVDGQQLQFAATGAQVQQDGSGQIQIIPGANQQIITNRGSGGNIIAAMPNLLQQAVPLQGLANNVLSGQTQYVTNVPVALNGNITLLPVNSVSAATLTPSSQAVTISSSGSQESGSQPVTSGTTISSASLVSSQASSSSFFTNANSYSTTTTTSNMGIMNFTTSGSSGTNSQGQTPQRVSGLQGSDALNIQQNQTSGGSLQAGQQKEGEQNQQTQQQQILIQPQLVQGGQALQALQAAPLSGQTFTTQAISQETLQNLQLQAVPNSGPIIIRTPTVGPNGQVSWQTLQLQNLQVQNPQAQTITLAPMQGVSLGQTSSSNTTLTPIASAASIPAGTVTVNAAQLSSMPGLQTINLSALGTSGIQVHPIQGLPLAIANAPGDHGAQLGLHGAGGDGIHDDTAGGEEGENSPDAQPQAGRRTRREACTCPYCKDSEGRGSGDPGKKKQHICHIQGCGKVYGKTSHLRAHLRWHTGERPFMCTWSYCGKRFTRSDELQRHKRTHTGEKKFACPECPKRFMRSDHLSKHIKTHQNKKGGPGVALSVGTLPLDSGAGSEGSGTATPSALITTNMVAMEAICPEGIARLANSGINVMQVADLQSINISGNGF
Method: protein-binding microarray
Form: double-stranded DNA, one strand shown
Matrix: in vitro
Concentration: not given
Notes: k-mer, scored over probes, only values ≥0.25
Direction: higher = stronger binding
Sequence | E-score
GACCCCAC | 0.252
CAACACCC | 0.281
CTATATAC | 0.28
ACAATACC | 0.311
CCCTTATA | 0.251
CCCCATAA | 0.271
ATATGGGG | 0.251
ATTAACAC | 0.288
CCACTCCC | 0.37
CACTCCCC | 0.396
AAGTGGGC | 0.303
ATAACCCC | 0.265
GGGGATTA | 0.3
ATTATTCC | 0.252

Study 4
Target: UBE2J2 UBC core domain (UniProt Q8N2K1)
Method: yeast two-hybrid
Matrix: yeast
Notes: mostly zero background
Baseline: not given
Direction: higher = stronger interaction
B1: RNF122 RING domain (UniProt Q9H9V4); chain AKKLQLYGQTCAVCLEDFKGKDELGVLPCQHAFHRKCLVKWLEVRCVCPMCNKPIASPSEAT
B2: TRIM54 RING domain (UniProt Q9BYV2); chain SMDNLEKQLICPICLEMFSKPVVILPCQHNLCRKCANDVFQASNPLWQSRGSTTVSSGGRFRCPSCRHEVVLDRHGV
B3: TRIM22 RING domain (UniProt Q8IYM9); chain VKVDIEKEVTCPICLELLTEPLSLDCGHSFCQACITAKIKESVIISRGESSCPVCQTRFQPGNLRP
B4: ANAPC11 RING domain (UniProt Q9NYG5); chain GICRMAFNGCCPDCKVPGDDCPLVWGQCSHCFHMHCILKWLHAQQVQQHCPMCRQEWKFKE
Residues (chain): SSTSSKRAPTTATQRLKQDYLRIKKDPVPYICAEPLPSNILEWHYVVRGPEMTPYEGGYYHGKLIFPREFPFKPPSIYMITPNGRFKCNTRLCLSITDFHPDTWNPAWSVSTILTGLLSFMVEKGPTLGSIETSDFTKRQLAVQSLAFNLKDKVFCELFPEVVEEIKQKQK
Sequence | lacZ reporter activity
PEELAVNNDDCAICWDSMQAARKLPCGHLFHNSCLRSWLEQDTSCPTCRMSLNIADNNR (AMFR RING domain (UniProt Q9UKV5)) | 0
B1 (RNF122 RING domain) | 0
B2 (TRIM54 RING domain) | 0
B3 (TRIM22 RING domain) | 0
B4 (ANAPC11 RING domain) | 4900
QVQSRTKIEECVVCSDKKAAVLFQPCGHMCACENCANLMKKCVQCRAVVERRVPFI (MIB1 RING domain (UniProt Q86YT6)) | 0

Study 5
Target: CCNE2, cyclin fold, Cln2 fusion (human)
Method: yeast growth competition, sequencing
Matrix: yeast
Notes: strong parent motif
Baseline: not given
Direction: higher = stronger binding
Starting sequence: INSM1 docking peptide (human); PKAIRKLHFEDEV; partner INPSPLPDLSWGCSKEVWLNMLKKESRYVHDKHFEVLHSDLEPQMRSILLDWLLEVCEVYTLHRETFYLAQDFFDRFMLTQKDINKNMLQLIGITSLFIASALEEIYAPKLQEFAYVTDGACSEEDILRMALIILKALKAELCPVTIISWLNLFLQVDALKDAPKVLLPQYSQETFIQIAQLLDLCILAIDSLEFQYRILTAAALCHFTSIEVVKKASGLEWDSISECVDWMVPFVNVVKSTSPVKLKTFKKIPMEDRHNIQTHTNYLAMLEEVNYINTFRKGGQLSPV
Change | normalised enrichment score
PKAIRKLHFEDSV [E12S] | 2.35
PRAIRKLHFEDEV [K2R] | 1.61
PKAIRKLHFEDTV [E12T] | 2.11
PKAIRKLHREDEV [F9R] | -0.0357
PKEIRKLHFEDEV [A3E] | 0.526
PKAIRKLHFYDEV [E10Y] | 0.884
PIAIRKLHFEDEV [K2I] | 0.625
PKAIRKLHFEDMV [E12M] | 2.28
PKAPRKLHFEDEV [I4P] | 0.352

Study 6
Target: Interferon regulatory factor 7, full length, phosphomimetic (IRF7, Homo sapiens, UniProt Q92985, residues 1-503, S101K/S471D/S472D/S475D/S476D/S477D/S483D/S484D/S487D)
Method: protein-binding microarray
Form: double-stranded DNA, one strand shown
Matrix: in vitro
Concentration: 250 nM
Notes: 60-bp whole probe
With: salmon DNA 0.4 mg/ml
Baseline: random background probes
Direction: higher = stronger binding
Constant ends, left off below: GCCTAGCAC … GTCTTGATTCGCTTGACGCTGCTG
Construct (chain): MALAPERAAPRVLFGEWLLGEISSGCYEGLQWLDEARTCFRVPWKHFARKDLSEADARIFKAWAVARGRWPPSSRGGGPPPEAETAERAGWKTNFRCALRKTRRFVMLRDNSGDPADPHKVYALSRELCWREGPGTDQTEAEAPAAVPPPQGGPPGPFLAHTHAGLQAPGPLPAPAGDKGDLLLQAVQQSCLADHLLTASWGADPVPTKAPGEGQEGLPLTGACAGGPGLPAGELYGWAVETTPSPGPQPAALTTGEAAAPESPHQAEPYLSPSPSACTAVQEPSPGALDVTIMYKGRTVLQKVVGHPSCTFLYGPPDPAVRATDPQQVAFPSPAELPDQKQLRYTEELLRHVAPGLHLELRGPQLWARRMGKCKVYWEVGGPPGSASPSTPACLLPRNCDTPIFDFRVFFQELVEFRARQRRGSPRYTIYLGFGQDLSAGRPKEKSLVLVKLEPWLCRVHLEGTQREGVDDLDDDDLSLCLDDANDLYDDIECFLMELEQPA
Sequence | log fluorescence
TTAGATTTCACTTTCGATTAGTGCTAG | 4.67 z-score
GACGGACTGGGACTGGAGACGTGCTAG | -0.47 z-score
TTAGGTCTCGGACTGTGTTAGTGCTAG | 0.812 z-score
GACGGTTTCGGGATTCGGGACGTGCTA | 7.53 z-score
TTAGGTATCGACTATCGGTTAGTGCTA | 0.211 z-score
TTAGGTATCGACTTTAGGTTAGTGCTA | 1.24 z-score
TTAGGACTGGACGCTGGGTTAGTGCTA | -0.717 z-score
CTCTCCATGTGTTTAAAGACGTGCTAG | 0.186 z-score
TTAGATATCACACTGGATTAGTGCTAG | -0.348 z-score
TCATCTCTGTTTATGTCACTGTGCTAG | 1.28 z-score
TCATGACTGGAGTCTGGAACTGTGCTA | -0.715 z-score
GACGGGATCGGGTTTCGGGACGTGCTA | 2.56 z-score
TCGGTGATCAGTCTGATGGTGTGCTAG | -0.743 z-score

Study 7
Target: ABI1, truncated, D143A, DHFR fusion (Arabidopsis thaliana)
Method: DHFR PCA, deep sequencing
Matrix: yeast
Notes: methotrexate growth selection, single substitutions
With: (+)-ABA 0.39 µM
Baseline: wild-type fitted maximum
Direction: higher = stronger binding
Starting sequence: PYL1, truncated, DHFR fusion (Arabidopsis thaliana); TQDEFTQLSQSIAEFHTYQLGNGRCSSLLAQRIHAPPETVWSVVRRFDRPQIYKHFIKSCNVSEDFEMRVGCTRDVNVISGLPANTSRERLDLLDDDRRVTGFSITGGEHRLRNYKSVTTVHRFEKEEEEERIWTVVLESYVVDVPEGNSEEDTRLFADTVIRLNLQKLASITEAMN; partner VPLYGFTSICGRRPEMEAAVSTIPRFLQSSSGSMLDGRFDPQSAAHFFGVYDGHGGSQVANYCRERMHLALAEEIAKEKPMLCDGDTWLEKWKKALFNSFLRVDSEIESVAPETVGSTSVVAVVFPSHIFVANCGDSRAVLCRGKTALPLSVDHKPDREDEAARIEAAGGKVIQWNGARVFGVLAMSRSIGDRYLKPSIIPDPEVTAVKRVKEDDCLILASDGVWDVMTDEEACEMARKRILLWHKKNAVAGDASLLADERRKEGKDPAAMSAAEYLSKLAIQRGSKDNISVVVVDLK
Change | relative binding score [%]
E109P | -0.926
D153N | -19.4
K126W | 7.93
E64M | 5.8
E127Q | 58
V40R | -4.43
W41Q | -7.83
L20R | 47
A35V | 1.7
L166Y | -6.2
K116T | 19.7
D96R | -6.99
